Experimental data of several laboratories.
Numbered parts are unrelated; each lists some results of a single study.

Series 1
Target: Interferon regulatory factor 3, full length, phosphomimetic (IRF3, Homo sapiens, UniProt Q14653, residues 1-427, S386D/S396D/S398D/S402D/T404D/S405D)
Technique: protein-binding microarray
Molecule type: double-stranded DNA, one strand shown
Sample: in vitro
Concentration: 2540 nM top
Setting: 60-bp whole probe
Together with: salmon DNA 0.4 mg/ml
Baseline: random background probes
Reading: higher = stronger binding
Quantity: fitted relative affinity
Constant ends, left off below: GCCTAGCAC … GTCTTGATTCGCTTGACGCTGCTG
Construct (chain): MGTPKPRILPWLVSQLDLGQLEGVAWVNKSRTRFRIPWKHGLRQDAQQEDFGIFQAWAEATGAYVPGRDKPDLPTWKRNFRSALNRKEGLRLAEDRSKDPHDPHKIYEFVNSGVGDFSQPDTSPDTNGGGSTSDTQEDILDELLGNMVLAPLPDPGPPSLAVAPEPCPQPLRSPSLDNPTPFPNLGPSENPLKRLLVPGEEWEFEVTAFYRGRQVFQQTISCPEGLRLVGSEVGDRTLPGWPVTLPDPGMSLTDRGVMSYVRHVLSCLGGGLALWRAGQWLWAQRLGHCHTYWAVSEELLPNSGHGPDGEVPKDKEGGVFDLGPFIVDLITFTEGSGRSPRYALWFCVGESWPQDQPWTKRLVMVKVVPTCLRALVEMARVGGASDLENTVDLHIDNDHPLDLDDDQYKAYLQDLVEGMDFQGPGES
Sequence = TTAGGACTGGACTATCGATTAGTGCTA; value = -0.345 z-score
Sequence = GACTATGCCGACTTTGGAAGTGTGCTA; value = -0.31 z-score
Sequence = TTAGGTATCGACTATCGGGTAGTGCTA; value = 0.205 z-score
Sequence = TCATGTTTACATATGTTACTGTGCTAG; value = 0.504 z-score
Sequence = GACGGTATCGGACTGGCGACGTGCTAG; value = 1.52 z-score
Sequence = TTAGGTCTCGGTTTCGGTGAGTGCTAG; value = 4.32 z-score
Sequence = GACGTTATCGACTATCGGGACGTGCTA; value = 0.0277 z-score
Sequence = ATGAGCCTCTGTTTTGAGCAGTGCTAG; value = -0.551 z-score
Sequence = TTAGGTTTCGACAGTGGGTTAGTGCTA; value = 1.54 z-score
Sequence = GACCGTTTCGGACTGGGGACGTGCTAG; value = 4.03 z-score
Sequence = GACGGTTCCCTATTCCTGACGTGCTAG; value = 3.54 z-score
Sequence = TTAGGAGTGGACACTGGGTTAGTGCTA; value = -0.868 z-score
Sequence = GACGGACTGGGTTATCGGGACGTGCTA; value = -0.609 z-score
Sequence = TCTCTGCTCCTTCTGACATCGTGCTAG; value = 0.925 z-score
Sequence = GAAGGTATCGGACTGGGGACGTGCTAG; value = 0.901 z-score
Sequence = TTGGGTTTCGGACTGGGTTAGTGCTAG; value = 3.05 z-score

Series 2
Target: Prothrombin, mature alpha-thrombin (F2, Homo sapiens, UniProt P00734)
Technique: aptamer microarray, sandwich
Molecule type: DNA with 2'F-ANA
Sample: in vitro
Concentration: 200 nM
Setting: whole 15-mer aptamer, many near background
Together with: Cy3 exosite-II aptamer, 400 nM
Reading: higher = stronger binding
Quantity: mean fluorescence intensity
Sequence: GGTTGGTGTGGTTGG
Modification = 2'F-ANA at 1 2 4 5 7 12 15; value = 110 a.u.
Modification = 2'F-ANA at 1 4 6 7 8 10 14; value = 44.9 a.u.
Modification = 2'F-ANA at 3 5 10 12 13; value = 86.4 a.u.
Modification = 2'F-ANA at 2 5 6 7 8 10 14 15; value = 49.5 a.u.
Modification = 2'F-ANA at 4 6 10 14 15; value = 56.8 a.u.
Modification = 2'F-ANA at 2 5 6 7 8 10 11 12 14; value = 45.7 a.u.
Modification = 2'F-ANA at 1 2 3 7 11 13; value = 205 a.u.
Modification = 2'F-ANA at 1 2 5 6 9 10 11 12 15; value = 51.9 a.u.
Modification = 2'F-ANA at 2 3 5 7 9 11 13; value = 72.5 a.u.
Modification = 2'F-ANA at 1 2 3 4 5 6 7 8 10 12; value = 61.9 a.u.
Modification = 2'F-ANA at 1 2 3 5 7 11 12; value = 94 a.u.
Modification = 2'F-ANA at 3 4 5 6 9 11; value = 86.6 a.u.
Modification = 2'F-ANA at 2 11 12 13 15; value = 582 a.u.
Modification = 2'F-ANA at 3 8 10 11 13 14 15; value = 336 a.u.
Modification = 2'F-ANA at 1 3 4 5 6 7 8 14 15; value = 47.1 a.u.
Modification = 2'F-ANA at 1 4 6 7 8 9 10 12 13; value = 74.9 a.u.

Series 3
Target: RNA binding protein fox-1 homolog 2, RRM domain, GST-SBP tag (RBFOX2, Homo sapiens, UniProt O43251-10, residues 100-194)
Technique: RNA Bind-n-Seq
Molecule type: RNA
Sample: in vitro
Concentration: 365 nM
Setting: natural RNA segment, single round, ends assumed
Baseline: no-protein control
Reading: higher = stronger binding
Quantity: RBNS enrichment (R)
Constant ends, left off below: GGGAGUUCUACAGUCCGACGAUC … UGGAAUUCUCGGGUGCCAA
Target sequence (chain): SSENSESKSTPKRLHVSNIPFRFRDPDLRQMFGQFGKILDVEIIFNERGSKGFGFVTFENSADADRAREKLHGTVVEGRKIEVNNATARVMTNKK
Sequence = GUCUCCCUGGAUCAGAACAGGAGCUCUUAACUACAGUGGCUGAAUAGCUUCUCCAAAGGCUCCCUGUGUUCUCACCGUGAUCAAGUUGAGGGGCUUCCGGCUCCCUUCUA; value = 0.315
Sequence = UUUAUUUUUAACUGUUUGCCACUGCUGCCCUCACCCCUGCCCGGCUCUGGAGUACCGUCUGCCCCAGACAAGUGGGAGUGAAAUGGGGGUGGGGGGAAGCACUGAUUCCC; value = 0.278
Sequence = UUCUAAGUCCCUCGAGUAAACGACAAUCAGGAAACGAACUCUCAGUGGCGGUGGUGCGUAGAACAUUAUGCUAAGGCCCAGAACUGAUCAGAGAAUUUGUUCACCACCGU; value = 0.37
Sequence = AACACUGGGAAGUGAUUCUUCCCUCAGGCCCCUCUGCCUACCAACACCUGGGCUCCUCACUGGGGGAAACAAAAGCCUAUAAACCCCAGCAACAAAACCUAGUCCUCUUA; value = 0.442
Sequence = UUCACUGGAUUUCUUUAGACAUUGAAGCAAACAUUUUUUUCUAAGAAUUGCUUCUCAGAUGAUGAUAUCAAAUGUAUAUGCUUUUGCAAGUUUGAAAAGUUCAAAUUAAC; value = 0.506
Sequence = UUAAAUUUUCUCAAAGCAAGGUAACUGCUCAGCUCAGUCAGCUGUGGCAAGCUGGCCAGCCCUCUUCACUCCAGCGUUCUUCACUGCUCUAUGUCUGCUUACACAGCUUG; value = 0.63
Sequence = GGGAAAGCUAGAAACACUAGGUUCUUCCUGUACAUACGUGUAUAUAUGUGAACAGUGAGAUGGCCGUUUCUGACUUGUAGAGAAAUUUUAAUAAACCUGGUUUCGUAAAU; value = 0.312
Sequence = AAAAUAACUUAAAUGCCCCUCCCCGGCCGCCUCCAAUUUCCAUUGGUUUCCAUGUGGCAAGAUCCCCGAGAAAACACAGCUAGGUGACUUUCUGACAAGCUGAAGCUAAU; value = 0.768

Series 4
Target: Histone acetyltransferase KAT6A, winged helix 1, GST fusion (KAT6A, Homo sapiens, UniProt Q92794, residues 1-85)
Technique: protein binding microarray
Molecule type: double-stranded DNA, one strand shown
Sample: in vitro
Concentration: not given
Setting: 8-mer, flanks averaged, mean of 2 arrays, mostly near background
Baseline: not given
Reading: higher = stronger binding
Quantity: E-score
Target sequence (chain): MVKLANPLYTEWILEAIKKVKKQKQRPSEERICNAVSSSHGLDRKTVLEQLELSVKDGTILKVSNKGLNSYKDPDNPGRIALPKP
Sequence = ATAAAGTG; value = -0.171
Sequence = GCCAGGCC; value = -0.00114
Sequence = GTGATGAA; value = -0.227
Sequence = GGTGGTTA; value = 0.014
Sequence = AAAGGGAC; value = -0.0334
Sequence = ATAGACTA; value = -0.217
Sequence = AGGATATG; value = -0.0373
Sequence = CGCGTCAC; value = 0.171
Sequence = GATTGGAC; value = -0.299
Sequence = ATTGGTAA; value = 0.0153
Sequence = ACTTGAGC; value = -0.203
Sequence = CGAGATTA; value = 0.122
Sequence = CCGTTCCC; value = 0.228
Sequence = CAAAATGC; value = -0.0809
Sequence = AAAGCACT; value = -0.174
Sequence = AGTCACAA; value = -0.239
Sequence = CCCCTCTC; value = -0.2
Sequence = ATAATCTA; value = 0.00686
Sequence = CGATTTTC; value = 0.00957
Sequence = CCTATGAG; value = -0.239
Sequence = ATACAGGC; value = -0.148
Sequence = AGATGGAG; value = -0.0777
Sequence = GACACCTA; value = -0.0523
Sequence = AGACCATG; value = -0.14
Sequence = AGACAGTC; value = 0.0345
